{"data": "Published values collected from several papers", "note": "± gives the spread as reported."}
{"SMILES": "C[C@H]1CNCCc2ccc(Cl)cc21", "system": "male Sprague-Dawley rat, plasma", "setting": "subcutaneous, pimavanserin 0.5 + lorcaserin 0.5 mg/kg, pimavanserin 15 min earlier", "quantity": "half-life", "result": "1.74 ± 0.11 h"}
{"SMILES": "CN1C(=O)CC(=O)N(c2ccccc2)c2cc(Cl)ccc21", "system": "Sprague Dawley rat, brain", "setting": "intraperitoneal, 37 mg/kg", "quantity": "half-life", "result": "1.25 h"}
{"SMILES": "CNC1(c2ccccc2Cl)CCCCC1=O (racemic)", "system": "male Wistar rats, plasma", "setting": "intraperitoneal, 40 mg/kg single dose", "quantity": "half-life", "result": "10.2 ± 5.2 h"}
{"SMILES": "CCCC(=O)OCSc1ccccc1C(=O)NCCC(N)=O", "system": "Sprague-Dawley rat, male, plasma", "setting": "intravenous, 50 mg/kg", "quantity": "half-life", "result": "0.4 ± 0.2 h"}
{"SMILES": "Nc1ncn([C@@H]2O[C@H](CO)[C@@H](O)[C@H]2O)c(=O)n1", "system": "male Rowett nude rat, lung tissue", "setting": "inhaled vs intraperitoneal, 0.6 vs 2 mg/kg", "scale": "reference: aerosol over intraperitoneal", "quantity": "half-life ratio", "result": "13 fold"}
{"SMILES": "NC1(c2ccccc2Cl)CCCCC1=O (racemic)", "system": "male Wistar rats, plasma", "setting": "intraperitoneal, 40 mg/kg once daily for 14 days, day 14", "quantity": "half-life", "result": "4.4 ± 5.5 h"}
{"SMILES": "COc1cc2c3c(c4cc(OC)c(OC)cc4c2cc1OC)CN1CCC[C@@H]1C3", "system": "Sprague-Dawley rats, male", "setting": "oral, dose not given", "quantity": "half-life", "result": "30.7 h"}
{"SMILES": "CN1CC[C@@]23CCCC[C@@H]2[C@@H]1Cc1ccc(O)cc13", "system": "Wistar rat, both sexes, plasma", "setting": "oral, 5 mg/kg DEM, DEM 2 h after pretreatment, together with: TCE 100 mg/kg single pretreatment", "quantity": "half-life", "result": "8.25 ± 3.45 h"}
{"note": "A few entries again:"}
{"SMILES": "C[C@H]1CNCCc2ccc(Cl)cc21", "system": "male Sprague-Dawley rat, plasma", "setting": "subcutaneous, pimavanserin 0.5 + lorcaserin 0.5 mg/kg, pimavanserin 15 min earlier", "quantity": "half-life", "result": "1.74 ± 0.11 h"}
